Published values gathered from unrelated publications.
Every numbered part comes from another study and shows a few of its results, in no order.
Chain of UniProt P57059 (whole entry, looked up): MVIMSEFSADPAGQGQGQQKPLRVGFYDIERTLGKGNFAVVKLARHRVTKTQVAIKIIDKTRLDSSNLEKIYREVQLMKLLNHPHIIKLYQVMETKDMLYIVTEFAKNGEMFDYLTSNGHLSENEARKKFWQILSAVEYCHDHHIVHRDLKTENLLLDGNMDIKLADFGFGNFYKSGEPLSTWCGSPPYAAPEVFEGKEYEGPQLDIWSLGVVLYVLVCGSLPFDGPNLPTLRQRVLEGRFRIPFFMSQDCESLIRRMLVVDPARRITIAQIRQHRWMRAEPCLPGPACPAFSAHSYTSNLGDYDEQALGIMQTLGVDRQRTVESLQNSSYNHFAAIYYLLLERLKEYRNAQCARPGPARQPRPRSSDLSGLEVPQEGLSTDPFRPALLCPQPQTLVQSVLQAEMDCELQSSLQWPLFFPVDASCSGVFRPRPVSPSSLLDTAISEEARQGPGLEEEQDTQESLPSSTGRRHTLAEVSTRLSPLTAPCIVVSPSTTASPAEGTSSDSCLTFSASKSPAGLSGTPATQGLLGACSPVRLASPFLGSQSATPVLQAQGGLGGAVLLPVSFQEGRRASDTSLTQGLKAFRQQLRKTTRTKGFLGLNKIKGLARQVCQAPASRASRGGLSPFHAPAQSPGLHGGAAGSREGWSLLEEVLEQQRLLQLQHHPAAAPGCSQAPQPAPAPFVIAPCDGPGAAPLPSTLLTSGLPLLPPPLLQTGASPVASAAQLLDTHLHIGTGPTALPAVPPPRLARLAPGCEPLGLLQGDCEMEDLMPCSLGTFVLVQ
Chain of UniProt O94921 (whole entry, looked up): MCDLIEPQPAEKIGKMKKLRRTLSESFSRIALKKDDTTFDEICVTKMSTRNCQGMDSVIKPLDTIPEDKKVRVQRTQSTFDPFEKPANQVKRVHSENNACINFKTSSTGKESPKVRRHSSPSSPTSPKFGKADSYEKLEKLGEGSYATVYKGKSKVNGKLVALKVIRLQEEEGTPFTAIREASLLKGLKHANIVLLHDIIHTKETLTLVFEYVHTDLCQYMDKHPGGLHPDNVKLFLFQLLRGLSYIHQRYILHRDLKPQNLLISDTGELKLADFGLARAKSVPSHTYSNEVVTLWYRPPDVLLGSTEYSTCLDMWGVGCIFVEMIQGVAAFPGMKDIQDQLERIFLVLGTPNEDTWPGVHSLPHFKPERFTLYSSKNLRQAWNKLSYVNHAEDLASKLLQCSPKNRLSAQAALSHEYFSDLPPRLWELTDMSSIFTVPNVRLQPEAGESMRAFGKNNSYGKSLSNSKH
Chain of UniProt Q15569 (whole entry, looked up): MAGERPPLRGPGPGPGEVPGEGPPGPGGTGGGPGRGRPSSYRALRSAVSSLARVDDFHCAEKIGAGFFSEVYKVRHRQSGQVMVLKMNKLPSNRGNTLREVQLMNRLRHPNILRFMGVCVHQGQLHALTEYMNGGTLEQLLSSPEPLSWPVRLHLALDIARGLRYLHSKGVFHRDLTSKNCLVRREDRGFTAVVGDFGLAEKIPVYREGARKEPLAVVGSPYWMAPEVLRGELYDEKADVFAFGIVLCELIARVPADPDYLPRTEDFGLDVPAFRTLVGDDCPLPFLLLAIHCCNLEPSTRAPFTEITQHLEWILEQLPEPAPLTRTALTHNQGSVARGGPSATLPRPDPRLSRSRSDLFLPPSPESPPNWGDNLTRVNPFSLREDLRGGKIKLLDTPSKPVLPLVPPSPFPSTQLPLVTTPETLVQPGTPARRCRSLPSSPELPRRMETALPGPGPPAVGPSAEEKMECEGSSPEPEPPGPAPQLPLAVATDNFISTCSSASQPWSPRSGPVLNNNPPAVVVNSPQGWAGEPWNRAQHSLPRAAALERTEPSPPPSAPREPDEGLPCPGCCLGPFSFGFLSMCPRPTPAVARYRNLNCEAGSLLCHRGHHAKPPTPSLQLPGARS
Chain of UniProt P21709 (whole entry, looked up): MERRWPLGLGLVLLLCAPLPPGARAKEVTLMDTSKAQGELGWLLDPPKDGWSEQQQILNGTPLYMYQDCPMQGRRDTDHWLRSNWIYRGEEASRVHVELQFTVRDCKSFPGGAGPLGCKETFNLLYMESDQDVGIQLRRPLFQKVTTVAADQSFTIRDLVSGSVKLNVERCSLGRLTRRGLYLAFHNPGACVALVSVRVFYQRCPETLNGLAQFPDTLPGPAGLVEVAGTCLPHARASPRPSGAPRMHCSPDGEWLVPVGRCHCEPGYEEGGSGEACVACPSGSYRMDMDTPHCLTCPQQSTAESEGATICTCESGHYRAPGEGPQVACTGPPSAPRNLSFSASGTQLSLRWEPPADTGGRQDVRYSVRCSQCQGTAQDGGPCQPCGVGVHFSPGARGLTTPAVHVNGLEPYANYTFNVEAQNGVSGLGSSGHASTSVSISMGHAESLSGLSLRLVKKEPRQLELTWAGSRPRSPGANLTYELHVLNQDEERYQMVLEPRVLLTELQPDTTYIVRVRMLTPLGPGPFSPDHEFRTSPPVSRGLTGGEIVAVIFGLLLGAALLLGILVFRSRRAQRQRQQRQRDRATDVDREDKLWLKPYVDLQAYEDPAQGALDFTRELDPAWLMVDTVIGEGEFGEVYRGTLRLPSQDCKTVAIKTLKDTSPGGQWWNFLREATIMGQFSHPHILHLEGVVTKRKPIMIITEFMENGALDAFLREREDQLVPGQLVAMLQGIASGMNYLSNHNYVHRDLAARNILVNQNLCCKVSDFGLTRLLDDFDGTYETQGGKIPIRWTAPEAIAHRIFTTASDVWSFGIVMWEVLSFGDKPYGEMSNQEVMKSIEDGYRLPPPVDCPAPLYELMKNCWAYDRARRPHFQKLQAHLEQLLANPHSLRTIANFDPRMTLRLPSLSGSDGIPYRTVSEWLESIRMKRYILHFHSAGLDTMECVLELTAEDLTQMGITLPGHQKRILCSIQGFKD
Chain of UniProt Q14012 (whole entry, looked up): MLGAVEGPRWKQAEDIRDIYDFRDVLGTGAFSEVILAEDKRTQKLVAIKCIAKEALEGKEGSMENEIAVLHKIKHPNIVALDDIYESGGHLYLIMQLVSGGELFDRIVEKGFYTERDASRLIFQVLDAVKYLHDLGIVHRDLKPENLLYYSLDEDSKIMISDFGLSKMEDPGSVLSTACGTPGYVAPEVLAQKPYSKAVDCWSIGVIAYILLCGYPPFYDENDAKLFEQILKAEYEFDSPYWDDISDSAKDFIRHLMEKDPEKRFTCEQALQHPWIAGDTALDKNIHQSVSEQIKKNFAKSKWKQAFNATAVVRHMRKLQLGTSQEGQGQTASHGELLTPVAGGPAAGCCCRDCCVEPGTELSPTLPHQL
Chain of UniProt Q9P1W9 (whole entry, looked up): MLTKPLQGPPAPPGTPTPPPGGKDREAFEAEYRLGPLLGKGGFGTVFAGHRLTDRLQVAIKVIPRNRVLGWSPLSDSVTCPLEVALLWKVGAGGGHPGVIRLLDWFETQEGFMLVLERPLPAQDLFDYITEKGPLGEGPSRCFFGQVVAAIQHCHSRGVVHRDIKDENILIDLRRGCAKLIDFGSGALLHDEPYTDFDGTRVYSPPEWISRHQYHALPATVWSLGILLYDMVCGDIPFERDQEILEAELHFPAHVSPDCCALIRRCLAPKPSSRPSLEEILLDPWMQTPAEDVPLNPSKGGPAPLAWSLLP

Block 1 — tested at: 1 µM; measurement: remaining binding
SMILES: N#Cc1ccc(Nc2ccc3[nH]c(=O)[nH]c3c2)c(Cl)c1
Phosphatidylinositol 3-kinase catalytic subunit type 3 (PIK3C3, Homo sapiens, UniProt Q8NEB9); cell-free assay, competition with immobilised ligand: 100%
Serine/threonine-protein kinase SIK1 (SIK1, Homo sapiens, UniProt P57059); competition binding: 100%
Epidermal growth factor receptor (EGFR, Homo sapiens, UniProt P00533, A750P/del747-749); cell-free assay, competition with immobilised ligand: 100%
Leukocyte tyrosine kinase receptor (LTK, Homo sapiens, UniProt P29376); cell-free assay, competition with immobilised ligand: 100%
Ribosomal protein S6 kinase alpha-3, C-terminal kinase domain (RPS6KA3, Homo sapiens, UniProt P51812); cell-free assay, competition with immobilised ligand: 87%
Cyclin-G-associated kinase (GAK, Homo sapiens, UniProt O14976); cell-free assay, competition with immobilised ligand: 100%
Tyrosine-protein kinase ABL1, phosphorylated (ABL1, Homo sapiens, UniProt P00519, Y253F); cell-free assay, competition with immobilised ligand: 87%
cGMP-dependent protein kinase 2 (PRKG2, Homo sapiens, UniProt Q13237); cell-free assay, competition with immobilised ligand: 87%
Serine/threonine-protein kinase Sgk2 (SGK2, Homo sapiens, UniProt Q9HBY8); cell-free assay, competition with immobilised ligand: 65%
Serine/threonine-protein kinase Nek6 (NEK6, Homo sapiens, UniProt Q9HC98); cell-free assay, competition with immobilised ligand: 100%
Serine/threonine-protein kinase PAK 1 (PAK1, Homo sapiens, UniProt Q13153); cell-free assay, competition with immobilised ligand: 85%
Tyrosine-protein kinase Lyn (LYN, Homo sapiens, UniProt P07948); cell-free assay, competition with immobilised ligand: 78%
Wee1-like protein kinase 2 (WEE2, Homo sapiens, UniProt P0C1S8); cell-free assay, competition with immobilised ligand: 100%
Proto-oncogene tyrosine-protein kinase receptor Ret (RET, Homo sapiens, UniProt P07949, M918T); cell-free assay, competition with immobilised ligand: 100%
Tyrosine-protein kinase JAK3, JH1 (JAK3, Homo sapiens, UniProt P52333); cell-free assay, competition with immobilised ligand: 100%
Cyclin-dependent kinase 4, with cyclin D3 (CDK4, Homo sapiens, UniProt P11802); cell-free assay, competition with immobilised ligand: 91%
Ephrin type-A receptor 1 (EPHA1, Homo sapiens, UniProt P21709); cell-free assay, competition with immobilised ligand: 91%
Vascular endothelial growth factor receptor 1 (FLT1, Homo sapiens, UniProt P17948); cell-free assay, competition with immobilised ligand: 100%
Calcium/calmodulin-dependent protein kinase type 1 (CAMK1, Homo sapiens, UniProt Q14012); cell-free assay, competition with immobilised ligand: 86%
Platelet-derived growth factor receptor beta (PDGFRB, Homo sapiens, UniProt P09619); cell-free assay, competition with immobilised ligand: 100%
Dual specificity mitogen-activated protein kinase kinase 6 (MAP2K6, Homo sapiens, UniProt P52564); cell-free assay, competition with immobilised ligand: 80%
Epidermal growth factor receptor (EGFR, Homo sapiens, UniProt P00533, del747-752/P753S); cell-free assay, competition with immobilised ligand: 62%
Cyclin-dependent kinase 11A (CDK11A, Homo sapiens, UniProt Q9UQ88); binding, competition with immobilised ligand: 97%
Receptor tyrosine-protein kinase erbB-4 (ERBB4, Homo sapiens, UniProt Q15303); cell-free assay, competition with immobilised ligand: 100%
Cyclin-dependent kinase 14 (CDK14, Homo sapiens, UniProt O94921); cell-free assay, competition with immobilised ligand: 100%

Block 2 — read-out: enzyme activity; mode: inhibitor; tested at: 10 µM; measurement: inhibition
Target: Calcium/calmodulin-dependent protein kinase type II subunit alpha (CAMK2A, Homo sapiens, UniProt Q9UQM7)
Chain of UniProt Q9UQM7 (whole entry, looked up): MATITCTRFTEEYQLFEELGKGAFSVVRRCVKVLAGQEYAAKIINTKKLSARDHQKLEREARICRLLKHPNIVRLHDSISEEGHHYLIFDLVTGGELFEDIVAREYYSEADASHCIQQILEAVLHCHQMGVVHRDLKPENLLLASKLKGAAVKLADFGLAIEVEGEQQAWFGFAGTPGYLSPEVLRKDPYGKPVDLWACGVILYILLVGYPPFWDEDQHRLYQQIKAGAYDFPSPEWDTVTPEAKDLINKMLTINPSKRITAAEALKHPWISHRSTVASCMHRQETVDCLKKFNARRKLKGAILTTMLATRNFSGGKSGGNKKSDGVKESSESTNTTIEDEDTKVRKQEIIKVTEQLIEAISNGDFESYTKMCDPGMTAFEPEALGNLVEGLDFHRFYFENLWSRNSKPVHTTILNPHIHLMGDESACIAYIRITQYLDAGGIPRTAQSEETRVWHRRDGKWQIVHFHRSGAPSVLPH
C[C@H]1CC[C@@]2(OC1)O[C@H]1C[C@H]3[C@@H]4CC=C5C[C@@H](O[C@@H]6O[C@@H](C)[C@H](O)[C@@H](O)[C@H]6O)C[C@@H](O[C@@H]6O[C@H](C)[C@H](O)[C@H](O)[C@H]6O)[C@]5(C)[C@H]4CC[C@]3(C)[C@H]1[C@@H]2C: 17%
CC(CCC(=O)O)C(=O)O (stereo not drawn): -64%
CC(C)c1cc2c(cc1S(=O)(=O)O)[C@@]1(C)CCC[C@@](C)(C(=O)O)[C@@H]1CC2: 2%
c1cn[nH]c1: -5%
CC(=O)O[C@@H]1C[C@H](O)[C@@]23CO[C@@H](O)[C@]1(C)[C@@H]2C[C@@H](O)[C@]1(C)[C@@H]3C(=O)[C@H](OC(C)=O)[C@@]2(C)[C@H](c3ccoc3)C[C@H]3O[C@]321: 24%
C[C@@H]1CC[C@]2(C(=O)O[C@@H]3O[C@H](CO)[C@@H](O)[C@H](O)[C@H]3O)CC[C@]3(C)C(=CC[C@@H]4[C@@]5(C)CC[C@H](O)[C@@](C)(CO)[C@@H]5CC[C@]43C)[C@@H]2[C@]1(C)O: -24%
CCCCc1oc2ccccc2c1C(=O)c1cc(I)c(OCCN(CC)CC)c(I)c1: -14%
O=S(=O)(O)c1ccc2[nH]c(-c3ccccc3)nc2c1: -2%

Block 3 — read-out: enzyme activity; tested at: 5 µM; measurement: remaining activity
SMILES: O=C(Nc1cnn(-c2csc(C(=O)NC3COC3)c2)c1)Nc1c(F)cccc1Cl
Mitogen-activated protein kinase kinase kinase 5 (MAP3K5, Homo sapiens, UniProt Q99683); reference: untreated control: 89.4%
Serine/threonine-protein kinase SIK1 (SIK1, Homo sapiens, UniProt P57059); reference: untreated control: 96.5%
Mitogen-activated protein kinase kinase kinase 3 (MAP3K3, Homo sapiens, UniProt Q99759); reference: untreated control: 80.4%
Tyrosine-protein kinase Mer (MERTK, Homo sapiens, UniProt Q12866); reference: untreated control: 76%
Tyrosine-protein kinase Tec (TEC, Homo sapiens, UniProt P42680); reference: untreated control: 97.3%
Serine/threonine-protein kinase NLK (NLK, Homo sapiens, UniProt Q9UBE8); reference: untreated control: 87.3%
Serine/threonine-protein kinase SIK2 (SIK2, Homo sapiens, UniProt Q9H0K1); reference: untreated control: 95.4%
Protein kinase C epsilon type (PRKCE, Homo sapiens, UniProt Q02156); reference: untreated control: 92.5%
Dual specificity testis-specific protein kinase 1 (TESK1, Homo sapiens, UniProt Q15569); inhibitor: 84.7%
Cyclin-dependent kinase 14 (CDK14, Homo sapiens, UniProt O94921); inhibitor: 110%
Serine/threonine-protein kinase pim-2 (PIM2, Homo sapiens, UniProt Q9P1W9); reference: untreated control: 127%

Block 4 — Compound: C=CCc1ccc(O)c(-c2ccc(O)c(CC=C)c2)c1; measurement: normalized current
ANO1 del476-501: Anoctamin-1 (ANO1, Homo sapiens, UniProt Q5XXA6, del476-501)
Chain of UniProt Q5XXA6 (whole entry, unmodified, looked up): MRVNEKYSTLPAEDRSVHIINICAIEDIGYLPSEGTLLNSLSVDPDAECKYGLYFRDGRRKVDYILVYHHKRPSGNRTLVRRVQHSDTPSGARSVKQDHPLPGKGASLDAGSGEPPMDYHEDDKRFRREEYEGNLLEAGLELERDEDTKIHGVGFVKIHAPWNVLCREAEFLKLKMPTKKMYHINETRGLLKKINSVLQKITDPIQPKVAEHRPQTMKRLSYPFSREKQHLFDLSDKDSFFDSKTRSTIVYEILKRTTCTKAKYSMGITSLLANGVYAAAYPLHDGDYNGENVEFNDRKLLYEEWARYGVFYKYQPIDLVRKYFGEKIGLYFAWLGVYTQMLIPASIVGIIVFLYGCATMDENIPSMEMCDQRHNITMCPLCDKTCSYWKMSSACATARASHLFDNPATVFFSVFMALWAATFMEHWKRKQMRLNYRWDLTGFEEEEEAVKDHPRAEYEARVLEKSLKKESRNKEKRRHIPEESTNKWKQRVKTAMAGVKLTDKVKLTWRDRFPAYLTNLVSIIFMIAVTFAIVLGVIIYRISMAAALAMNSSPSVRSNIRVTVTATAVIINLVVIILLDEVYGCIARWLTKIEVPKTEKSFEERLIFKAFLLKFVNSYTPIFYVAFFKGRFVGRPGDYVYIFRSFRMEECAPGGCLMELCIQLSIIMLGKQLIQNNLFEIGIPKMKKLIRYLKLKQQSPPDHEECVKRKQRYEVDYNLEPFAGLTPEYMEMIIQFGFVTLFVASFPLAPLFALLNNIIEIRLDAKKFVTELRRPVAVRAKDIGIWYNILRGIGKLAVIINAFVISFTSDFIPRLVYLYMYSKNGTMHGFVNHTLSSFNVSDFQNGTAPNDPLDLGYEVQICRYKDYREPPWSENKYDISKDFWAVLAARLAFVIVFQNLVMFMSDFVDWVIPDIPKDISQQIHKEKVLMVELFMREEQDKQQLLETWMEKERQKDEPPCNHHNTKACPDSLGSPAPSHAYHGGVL
ANO1 del476-501/F628A: Anoctamin-1 (ANO1, Homo sapiens, UniProt Q5XXA6, del476-501/F628A)
ANO1: Anoctamin-1 (ANO1, Homo sapiens, UniProt Q5XXA6)
ANO1 del476-501; chloride current, whole-cell voltage clamp; 10 µM, wild type, concentration-response at -40 mV, added: 4 µM Ca2+: -0.114
ANO1 del476-501/F628A; chloride current, whole-cell voltage clamp; 100 µM, I-V at -60 mV, added: 4 µM Ca2+: -0.151
ANO1 del476-501; chloride current, whole-cell voltage clamp; 3 µM, wild type, I-V at 80 mV, added: 4 µM Ca2+: 0.628
Anoctamin-1 (ANO1, Homo sapiens, UniProt Q5XXA6, del476-501/E649A); ion current, inside-out patch clamp; 10 µM, E623A mutant at 100 mV: 0.822
ANO1 del476-501/F628A; chloride current, whole-cell voltage clamp; 3 µM, concentration-response at 60 mV, added: 4 µM Ca2+: 0.538
TMEM16A (human) K603A/E623A; chloride current, inside-out patch clamp; 10 µM, membrane voltage -60 mV: -0.259
Anoctamin-1 (ANO1, Homo sapiens, UniProt Q5XXA6, del476-501/K430L); chloride current, whole-cell voltage clamp; concentration not given: 0.401
ANO1; chloride current, inside-out patch clamp; 10 µM, membrane voltage 60 mV: 0.471
ANO1 del476-501/F628A; chloride current, whole-cell voltage clamp; 10 µM, concentration-response at 20 mV, added: 4 µM Ca2+: 0.153
ANO1; chloride current, inside-out patch clamp; 10 µM, membrane voltage 20 mV: 0.151
